# Assay results from different studies.
# Compare with care: the assays were run in different laboratories. Numbers after ± are the reported error.
Compound,cell line,assay,conditions,IC50
NC(=O)N/N=C/c1ccc(OCc2ccccc2)cc1,IMR-32,"cell growth or viability, MTT",24 h,11.3 µg/mL
CNC(=O)c1cc(Oc2ccc(NC(=O)c3cc(-c4ccc(COC(=O)CCC(=O)OC5OC6OC7(C)CCC8C(C)CCC(C5C)C68OO7)cc4)ccn3)cc2)ccn1 (centres unmarked),Hep3B,"cell growth or viability, MTT",72 h,10.9 µM
Cc1cc(C)c(N2CCN(c3c(C)cc(C)cc3C)C2=[Se])c(C)c1.[Cl][Ag],LoVo-OXP (oxaliplatin-resistant),MTT,72 h,2.4 ± 0.8 µM
C=C(C(=O)O)[C@@H]1CC[C@@]2(C)CCC(=O)C(C)=C2C1,human Neutrophil,"superoxide release, inhibitor, absorbance",,> 10 µM
N=C(N)NCCC[C@H](NC(=O)[C@H](CCCNC(=N)N)NC(=O)[C@@H]1CCCN1C(=O)[C@H](CCCNC(=N)N)NC(=O)[C@H](CCCNC(=N)N)NC(=O)[C@H](CCCNC(=N)N)NC(=O)[C@H](Cc1c[nH]c2ccccc12)NC(=O)[C@H](CCCNC(=N)N)NC(=O)[C@H](CCCNC(=N)N)NC(=O)[C@H](CCCNC(=N)N)NC(=O)[C@H](CCCNC(=N)N)NC(=O)[C@H](CCCNC(=N)N)NC(=O)[C@H](Cc1c[nH]c2ccccc12)NC(=O)[C@H](CCCNC(=N)N)NC(=O)[C@H](CCCNC(=N)N)NC(=O)[C@H](Cc1ccc(O)cc1)NC(=O)[C@H](CCCNC(=N)N)NC(=O)[C@H](CCCNC(=N)N)NC(=O)[C@H](CCCNC(=N)N)NC(=O)[C@@H](N)Cc1c[nH]c2ccccc12)C(N)=O,SK-BR-3,"cell viability, CellTiter-Blue","24 h, serum-free medium",14.1 ± 1 µM
Cc1nn(-c2ccccc2)c(O)c1C(c1cccc([N+](=O)[O-])c1)c1c(C)nn(-c2ccccc2)c1O,Ishikawa,"cell growth or viability, MTT",48 h,32.8 µM
O=C1[O][Pt]2([OH])([OH])([NH]C3CCCCC3[NH]2)[O]C1=O (centres unmarked),CAKI-1,"cell growth or viability, resazurin",72 h,> 100 µM
C[C@H]1[C@H](OC(=O)CCC(=O)Oc2ccc(C(N)=S)cc2)O[C@@H]2O[C@@]3(C)CC[C@H]4[C@H](C)CC[C@@H]1[C@@]24OO3,K562,"cell growth or viability, CCK-8",72 h,1.03 µM
[Cl][Au].[Se]=c1n(C2CCCCC2)ccn1C1CCCCC1,A-375,"cell growth or viability, MTT",72 h,0.4 µM
C[C@H]1C(OCCCC[P+](c2ccccc2)(c2ccccc2)c2ccccc2)O[C@@H]2O[C@@]3(C)CCC4[C@H](C)CCC1[C@]42OO3 (some centres unmarked),OVCAR-3,"cell growth or viability, MTT",72 h,0.243 µM
CC[C@H](C)[C@@H]1NC(=O)[C@H](CCCNC(=N)N)NC(=O)C[C@@H](c2cccc3ccccc23)NC(=O)[C@@H]2CSSC[C@H](NC(=O)C[C@@H](c3cccc4ccccc34)NC(=O)[C@H](CCCNC(=N)N)NC(=O)[C@@H]3CCCN3C(=O)[C@@H]3CCCN3C1=O)C(=O)N[C@@H](Cc1ccccc1)C(=O)N1CCC[C@H]1C(=O)N[C@@H](CC(=O)O)C(=O)N[C@@H](CC(=O)O)C(=O)N[C@@H](Cc1ccccc1)C(=O)N2,HLF,"cell growth or viability, ATP luminescence",,> 100 µM

# Excerpt of the above:
Compound,cell line,assay,conditions,IC50
[Cl][Au].[Se]=c1n(C2CCCCC2)ccn1C1CCCCC1,A-375,"cell growth or viability, MTT",72 h,0.4 µM
